Results gathered from unrelated publications.
A part holds a random share of what one study measured.

Block 1
Target: Sal-like protein 4, full length isoform A (SALL4, Homo sapiens, UniProt Q9UJQ4, residues 1-1053)
UniProt Q9UJQ4, sequence (whole entry, looked up): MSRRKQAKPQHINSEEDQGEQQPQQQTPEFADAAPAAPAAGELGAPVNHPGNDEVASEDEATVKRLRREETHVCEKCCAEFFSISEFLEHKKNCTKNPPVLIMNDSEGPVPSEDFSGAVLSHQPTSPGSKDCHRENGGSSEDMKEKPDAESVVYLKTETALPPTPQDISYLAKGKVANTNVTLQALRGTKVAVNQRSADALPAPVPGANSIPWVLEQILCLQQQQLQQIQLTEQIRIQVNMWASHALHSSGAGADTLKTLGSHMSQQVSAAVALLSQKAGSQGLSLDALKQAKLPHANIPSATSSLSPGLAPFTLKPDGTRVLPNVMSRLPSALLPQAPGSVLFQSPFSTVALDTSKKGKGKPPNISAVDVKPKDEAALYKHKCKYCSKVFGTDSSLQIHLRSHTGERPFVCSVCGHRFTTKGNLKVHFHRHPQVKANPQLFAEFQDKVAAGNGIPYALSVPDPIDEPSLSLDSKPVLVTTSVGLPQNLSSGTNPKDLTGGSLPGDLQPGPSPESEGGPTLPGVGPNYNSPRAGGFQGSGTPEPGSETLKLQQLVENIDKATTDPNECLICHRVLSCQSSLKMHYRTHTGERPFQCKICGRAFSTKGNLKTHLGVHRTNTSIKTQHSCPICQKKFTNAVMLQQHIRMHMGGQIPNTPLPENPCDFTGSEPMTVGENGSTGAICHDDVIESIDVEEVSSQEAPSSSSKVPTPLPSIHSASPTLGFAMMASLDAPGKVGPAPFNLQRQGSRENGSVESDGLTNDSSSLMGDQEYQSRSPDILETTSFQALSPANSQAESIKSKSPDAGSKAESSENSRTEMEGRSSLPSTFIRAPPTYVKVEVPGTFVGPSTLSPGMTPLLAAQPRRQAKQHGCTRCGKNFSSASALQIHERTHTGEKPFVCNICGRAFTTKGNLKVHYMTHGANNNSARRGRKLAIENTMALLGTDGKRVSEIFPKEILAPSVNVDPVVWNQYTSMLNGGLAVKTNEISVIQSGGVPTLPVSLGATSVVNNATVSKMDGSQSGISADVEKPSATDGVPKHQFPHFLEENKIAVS
Technique: universal PBM
Molecule type: double-stranded DNA, one strand shown
Matrix: in vitro
Tested at: 600 nM
Setting: 8-mer, flanks averaged, mean of replicates
Direction: higher = stronger binding
Quantity: E-score
CCATACGC: -0.00357
CCGTCCGC: -0.31
CGTCTGGC: -0.195
CTGGTCAA: -0.0904
CCGGGCAA: -0.329
TTCATGAA: 0.181
CAGGCTAA: -0.182
GCTTTACC: 0.0375
GTATCAAA: 0.232
TACTGCTA: 0.0578
GAAGCTTC: -0.243
CTCGCGAA: -0.0683
CTGCATAA: 0.21
CAAACCCA: 0.0978
GGTCAATA: 0.175
GATTGGTA: 0.106
AACCACAA: 0.121
AATGCGCA: 0.172
AGCGCACT: -0.241
CCACCAAC: -0.26
TCAATTAA: 0.278

Block 2
Target: Fragile X messenger ribonucleoprotein 1, C-terminal low-complexity region (Fmr1, Mus musculus, UniProt P35922)
Technique: RNA Bind-n-Seq
Molecule type: RNA
Matrix: in vitro
Tested at: 200 nM
Setting: whole 134-nt RNA, ends assumed
Added: 150 mM KCl
Reference: input library
Direction: higher = stronger binding
Quantity: log2 enrichment
Constant ends, left off below: GGGAGUUCUACAGUCCGACGAUC … UGGAAUUCUCGGGUGUCAAGG
UGGUCCUGGUGGCAUGCGGGGAGGAAGAGGUGGCCUCAUGGAUCGUGGUGGUCCCGGUGGAAUGUUCAGAGGUGGCCGUGGUGGAGACAG: 0.138
UGGACAUGGAUUUUCAAGCCUACUUAGCUUCCUCUAGUGAAGAUGAAGAGGAGAUAGAAGAGGAGCUACAAGGUAUUGUUAAUCUUUCAG: -0.872
CCUGUGCUACACAUCGUAUGUACCGAAUCGGGGAAAAAAAGGGGAAAGGGGAAAAAGGGGAAAGUAUUAUGUUACGCCGUUCGGAUCUGC: 0.0667
GUCCUGUGCUACACAUCGUAUGUACCGAAUCGGGGAAAAAAGGAAAAAAGGAAAAAAGGAAAGUAUUAUGUUACGCCGUUCGGAUCUGCA: -0.734
GUCCUGUGCUACACAUCGUAUGUACCGAAUCGGGUUUUUUUGGGAAAAAAAGGGUGGGAAAGUAUUAUGUUACGCCGUUCGGAUCUGCAC: 0.0933
UCCUCAAGUCCUGUGCUACACAUCGUAUGUACCGAAUCGGUGGUUUGGUGGAAAGUAUUAUGUUACGCCGUUCGGAUCUGCACUUCCAGC: -0.388
CCUCAAGUCCUGUGCUACACAUCGUAUGUACCGAAUCGGGAGGGGAGGAGGGGAAAGUAUUAUGUUACGCCGUUCGGAUCUGCACUUCCA: 1.23
AGUCCUGUGCUACACAUCGUAUGUACCGAAUCGGGGUUUUUGGGGAAAGGGGAGGGGAAAGUAUUAUGUUACGCCGUUCGGAUCUGCACU: 0.423
CACAGACAACACGUACCCACACAGACACAGAGGGAAGGGGUUGGGAUGGGGACAGGGUGCACAGCAGGGCGGGGUAGGACCCCAGCCCCU: 1.4
GUCCUGUGCUACACAUCGUAUGUACCGAAUCGGGGAGGGGAAAAAAAGGGGAAAGGGGAAAGUAUUAUGUUACGCCGUUCGGAUCUGCAC: 0.442

Block 3
Target: Histone acetyltransferase KAT6A, winged helix 2, GST fusion (KAT6A, Homo sapiens, UniProt Q92794, residues 85-181)
Technique: protein binding microarray
Molecule type: double-stranded DNA, one strand shown
Matrix: in vitro
Tested at: not given
Setting: 8-mer, flanks averaged, mean of 2 arrays, mostly near background
Reference: not given
Direction: higher = stronger binding
Quantity: E-score
Residues (chain): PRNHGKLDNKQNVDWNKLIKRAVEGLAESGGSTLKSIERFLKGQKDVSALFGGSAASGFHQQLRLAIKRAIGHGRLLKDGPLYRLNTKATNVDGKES
AGAATCTG: 0.0115
GTCCGACA: 0.036
GAGGTAAA: 0.0997
AAGGCTTG: -0.16
TTGATAAA: 0.284
GTACCGAC: -0.0398
TGTTATAA: 0.089
CGATTGCA: 0.0183
AAGAGGAT: -0.193
CTGATAAC: -0.00381
ACCAGACT: -0.132
CTCGACTA: -0.0266
GCGACATA: 0.0936
CAGACGGG: 0.0936
ATAGTCTG: 0.0498
CGCCAGTC: 0.0713
CCCTCCCA: 0.155
ATTAGGTG: -0.137
AGATTGGA: -0.024
CATTAGGA: -0.101
CGTTACTC: 0.0483
AACCTTAT: -0.029
GCTTCCTA: 0.0434
CCTGTCGC: 0.0499
ACGGTTAC: -0.061

Block 4
Target: RNA binding protein fox-1 homolog 2, RRM domain, GST-SBP tag (RBFOX2, Homo sapiens, UniProt O43251-10, residues 100-194)
Technique: RNA Bind-n-Seq
Molecule type: RNA
Matrix: in vitro
Tested at: 365 nM
Setting: natural RNA segment, single round, ends assumed
Reference: no-protein control
Direction: higher = stronger binding
Quantity: RBNS enrichment (R)
Constant ends, left off below: GGGAGUUCUACAGUCCGACGAUC … UGGAAUUCUCGGGUGCCAA
Residues (chain): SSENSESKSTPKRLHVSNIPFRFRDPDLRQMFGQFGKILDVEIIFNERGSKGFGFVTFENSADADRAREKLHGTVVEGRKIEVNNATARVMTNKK
GCAACAGUCUUGCUGACAAGCUAGAGCUUGGACUGAAAGAGAAGAGCUGGAUUAUAUAUUUCCCAGACUUCAAACCCUAGCAGAAGCUAAGGCUUGUGAUUUGACCUGAG: 0.418
AGUAUAUACUAACAUCAUUCUGCCAAGGUAGGAAGCCCCUGACCCCCAAGCAGUGGUGCCACUCUUCCAAGCCUCUUGGUGCACAGUAAACCUAUUGCUUGAAGCUUUGA: 0.427
AGGGAGCUUUGGGGAUGCGGGCCUUCCCUGGGGCUUGGACCUUUGCAGGGAGGCCAUGCCCGCCACCCCUCUUGUUCUGGAUCCCUGCUCCCCUCUGGGUGUGUGGGUGU: 0.3
CAGAUCUUUUAAAAACACUUGUCUCAUGUAAUUGAGACCCGCCACCAUCGCAGAUGAGUGACAAGAGAGAAGGCUGUCAACACUUCGGUACAUGGUGAUCUUAAAAACAC: 0.322
GAGAAUCUAUUUGGGAAGUGGGUAGGGGGUGGGAGAACAGUGUUGUCACAUGCAUUCUGUGGUGGCCAGCACUACGAAAUGCUACCUUCAAUAAACUGAACCUGCCACUC: 0.498
GAUUGGCAAGGCUCCUAUGGAGCUCCCAGAAGCCUCAGCUAGGAAAAUGAGCCCUCACUUCAGCCUGUAUCUAGCACGUGGGGCAGCUGCCUAGCUGACUGCUGCACAAG: 1.38
UUUGAGCAGGUAUCAAAUGAUUUAGGAUCCUUAAAAUUACAUUCUAAUAAUUAAGUUAUGUGGAAAAAGUAAGGCUGGGGAAGUCGUGAUUAAUAGUUUUCAAAGGGCCA: 0.357
GACCUCUUUCUGCACGAAAAAAGAAAGAAAAAUGACAGCUGGAAAAAGUCCUUUGUAUUGGCACAUGAUAAAUCUUGAUGACGGGCUAUAUUCUGAACAAACGCUUGCAC: 21.7
UAUGUAAAAUAUGUAUGAAGAAAAGGUGUACAAAAAUUUGCCCUUAUGCACGGAACUCUGUUUCUAAGUGCCAAGCACAGAAAGCCGCUAAAUAAAAUCUUUGCAAUUGU: 1.06
AGCAGAAUUGUCUGGAAAGACUGAAGGACAGAGAGGGAGGUGUACAGUUCUCUCUGGAGGCUUUGUGGGAUUGGGAGAGCUGCUACAGAGGAGUACCAUGAAAGCACUGA: 1.69
UAGAAGGGGAUCCUAACAGGGACUUCUGGAGCAGACAGAGCCUGCCAGUGCCUGUGGAGUCAGCCAGCCGAGGGUCUGCCUCCUCAGCUGCCCCAGGGGGGCCUCCCUCC: 0.798
CAUAGCAAUCGGAAUUAUUUUAAAUUCAAAAAUUGAUGCCCUCCCAAACCCCCCAAAGUAAAAAUUUGUUAAAGUGCAGAUUUUUUUUUUCUUUUUAUGUUAUGUGGUGU: 1.62

Some of these lines once more (block 3):
GCGACATA: 0.0936
TTGATAAA: 0.284
CGCCAGTC: 0.0713
AGATTGGA: -0.024
CATTAGGA: -0.101
AAGAGGAT: -0.193
CCTGTCGC: 0.0499
ACCAGACT: -0.132
